Measurements of several laboratories.
Each numbered part is a random draw from the data of one study; scales do not carry over between parts. Positions count from the first letter of the parent shown.

Block 1 — technique: RNA Bind-n-Seq; form: RNA; medium: in vitro; concentration: not given; baseline: input RNA pool; reading: higher = stronger binding
Target: RING finger protein unkempt homolog, zinc fingers 1-6, GST-SBP tag (UNK, Homo sapiens, UniProt Q9C0B0, residues 30-357)
Sequence of UniProt Q9C0B0 (30-357, looked up): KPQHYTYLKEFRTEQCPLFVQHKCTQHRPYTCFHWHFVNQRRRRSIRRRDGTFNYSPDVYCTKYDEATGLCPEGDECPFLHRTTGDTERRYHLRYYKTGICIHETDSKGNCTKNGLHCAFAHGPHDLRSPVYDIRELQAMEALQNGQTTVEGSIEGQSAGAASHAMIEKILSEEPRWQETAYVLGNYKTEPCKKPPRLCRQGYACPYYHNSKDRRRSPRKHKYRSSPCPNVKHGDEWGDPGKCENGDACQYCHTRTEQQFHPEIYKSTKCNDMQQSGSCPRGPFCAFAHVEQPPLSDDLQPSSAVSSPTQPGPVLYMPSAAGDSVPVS
Setting: RNA with constant flanks, human and mouse sites, ends assumed
Constant ends, left off below: GGGAGUUCUACAGUCCGACGAUC … CAACAGAGGAUUGAGCAUCA
| Strand | bound/input enrichment [ratio] |
| --- | --- |
| GAAUGUGGCUGGAAGGAUCAGUUGAAGGCACACUGUAAAGAGGUAAUUAAAGAAAAAGGACUAGAACACGUUACUGUUGAUGACUUGGUGGCUGAAAUCACUCCAAAAGGCAGAGCCCUG | 0.316 |
| UCUUUUUUUUAAAGUUAUCAAAUCUUCAUUUUCUAAGAGUAGCCCUUUAUAGUGUACAAAAUGAUAUUAAGUGCAUUAUUAUCUUCGCUUUUCAUGGCUCUGAGUCAUAAAACAAGCUGG | 0.438 |
| CGGGAUGAGUUUCUGAGAAUCAGCACUGCUAGUGGAGAUGGGCGCCACUACUGCUACCCUCACUUUACCUGCGCCGUGGACACUGAGAACAUCCGCCGUGUCUUCAACGACUGCCGUGAC | 0.156 |
| GACCAUGAAUUAUGGAAUUUCCUAAAUGAAGCAUUCAGGAAUGGAAUGAGAGAAUGUCACAUAGAAAAUAAAUGAUUUUUAAGUUAUGUCUAUUAAUUUGACUCUAGAUAUAUAUAUUUA | 5.1 |
| ACUAAGAGUGAAAGUUGGAAAUGUGAUAUUUGUAAGAAAUCUUUUACUCGAAGACCACACUUGGAGGAACAUAUGAUUCUACAUUCUCAAGAUAAACCUUUUAAGUGUACCUAUUGUGAA | 0.117 |
| CUGAGGAGUUGAGGGUUAUUGACACUAGAGAAAUGAAUUCUCAUUUGAUCCUAAUUUUCCCCGUAUUCUACUUGAACACAUUAAAAAUACUCUGCUGCCUAUACAAUGUAAACCUAGGAG | 0.416 |
| UGUAUUGACCAAAGUUUUGCAGCUCUACUAUAUUCUGUGCUCAGGACUAAAAUGCUGUUAAUUUUUUUUUUUUUUUCCAGUGCUGUGCAUAUAUUCUGUGAUGGGAAACAUUGUUGAUGU | 0.376 |
| AUCACCAUGUUGGAGGCAGCCUUGGGACUGGAGCGAGCUCACAUGGGAAUGUUCACAGAGCUAGCUAUUUUGUAUUCUAAAUUCAAGCCACAGAAAAUGAGAGAACACCUGGAGUUGUUC | 0.655 |

Block 2 — target: CCND2, cyclin fold, Cln2 fusion (human); technique: yeast growth competition, sequencing; medium: yeast; setting: weak parent motif; baseline: not given; reading: higher = stronger binding
Parent: ORC1 docking peptide (human); PRARKRLELGNLG; partner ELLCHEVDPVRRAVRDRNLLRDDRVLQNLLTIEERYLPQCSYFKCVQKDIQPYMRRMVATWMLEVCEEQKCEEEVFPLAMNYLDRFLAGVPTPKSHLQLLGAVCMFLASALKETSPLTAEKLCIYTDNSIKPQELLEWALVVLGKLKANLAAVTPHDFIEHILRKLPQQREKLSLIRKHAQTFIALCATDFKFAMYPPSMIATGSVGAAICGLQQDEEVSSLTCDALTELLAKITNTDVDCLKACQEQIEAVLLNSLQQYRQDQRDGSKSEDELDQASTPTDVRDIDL
| Variant | normalised enrichment score |
| --- | --- |
| G13D | 0.114 |
| A3E | 0.495 |
| L7F | -0.183 |
| G10F | -0.134 |
| G10E | 0.408 |
| G13E | -0.415 |
| R4P | 0.0836 |
| A3K | 0.192 |

Block 3 — technique: protein-binding microarray; form: double-stranded DNA, one strand shown; medium: in vitro; concentration: 940 nM top; setting: 60-bp whole probe; added: salmon DNA 0.4 mg/ml; baseline: random background probes; reading: higher = stronger binding; constant ends, left off below: GCCTAGCAC … GTCTTGATTCGCTTGACGCTGCTG
Target: Interferon regulatory factor 5, full length, phosphomimetic (IRF5, Homo sapiens, UniProt Q13568-2, residues 1-514, S451D/S453D/S456D/S462D)
| Strand | fitted relative affinity |
| --- | --- |
| GACTATTTCGGGTATCGAGACGTGCTA | 1.19 z-score |
| ATTGCTTCCTCTTTCACTGGGTGCTAG | 1.54 z-score |
| TCAACTTTGACTTAAGAACTGTGCTAG | 0.0856 z-score |
| GACGGACTGGGTATAGGGACGTGCTAG | -0.359 z-score |
| TTAGGTATCGACTATGGGTTAGTGCTA | 5.91 z-score |
| TCATTTTTCTCAACCGTACTGTGCTAG | 1.3 z-score |
| GACGGCATCGGACTGGGGACGTGCTAG | -0.342 z-score |
| TCAGCCATATTTATCTGACTGTGCTAG | -0.136 z-score |
| TTAGGACTGGGAGTGGGTTAGTGCTAG | -0.293 z-score |

Mixed results
| Molecule | target | assay | system | setting | scale | endpoint | result |
| --- | --- | --- | --- | --- | --- | --- | --- |
| PhoQ, residues 284 288 289 292 302 303 NLCILV | PhoP, residues 12 14 15 18 19 LQHIR (Escherichia coli, UniProt P23836) | Sort-seq, measured: YFP reporter | E. coli | PhoQ-PhoP variant library, added: 10 µM Mg2+ | baseline: high Mg2+ state, higher = stronger signaling | fold induction | 20.9 |

Excerpt of the above (block 1):
| Strand | bound/input enrichment [ratio] |
| --- | --- |
| CGGGAUGAGUUUCUGAGAAUCAGCACUGCUAGUGGAGAUGGGCGCCACUACUGCUACCCUCACUUUACCUGCGCCGUGGACACUGAGAACAUCCGCCGUGUCUUCAACGACUGCCGUGAC | 0.156 |
| AUCACCAUGUUGGAGGCAGCCUUGGGACUGGAGCGAGCUCACAUGGGAAUGUUCACAGAGCUAGCUAUUUUGUAUUCUAAAUUCAAGCCACAGAAAAUGAGAGAACACCUGGAGUUGUUC | 0.655 |
| ACUAAGAGUGAAAGUUGGAAAUGUGAUAUUUGUAAGAAAUCUUUUACUCGAAGACCACACUUGGAGGAACAUAUGAUUCUACAUUCUCAAGAUAAACCUUUUAAGUGUACCUAUUGUGAA | 0.117 |
| GAAUGUGGCUGGAAGGAUCAGUUGAAGGCACACUGUAAAGAGGUAAUUAAAGAAAAAGGACUAGAACACGUUACUGUUGAUGACUUGGUGGCUGAAAUCACUCCAAAAGGCAGAGCCCUG | 0.316 |
